Measurements gathered from unrelated publications.
Parts stem from different laboratories: compare values within a part only. Substitutions count along the parent as printed.

Study 1
Target: CCND3, cyclin fold, Cln2 fusion (human)
Technique: yeast growth competition, sequencing
Matrix: yeast
Notes: weak parent motif
Baseline: not given
Direction: higher = stronger binding
Parent: viral docking peptide; YKVKRRLVFGADD
For `YKVKFRLVFGADD [R5F]`, “normalised enrichment score” read -0.21.
`YKVMRRLVFGADD [K4M]`: “normalised enrichment score” -0.836.
Under “normalised enrichment score”, `YKVKRDLVFGADD [R6D]` is recorded as 0.345.
`YKVKNRLVFGADD [R5N]`: “normalised enrichment score” -0.288.
`YKVKRRLVVGADD [F9V]`: “normalised enrichment score” 0.0233.
`YKVKRRLVMGADD [F9M]` — result for “normalised enrichment score”: 0.022.
For `YKVKRRLVFGFDD [A11F]`, “normalised enrichment score” read 0.261.
For `YKVKRRLIFGADD [V8I]`, “normalised enrichment score” read 0.00794.
`YKVKRRLVFGDDD [A11D]`: “normalised enrichment score” 0.977.
`YKVKRRLCFGADD [V8C]` — result for “normalised enrichment score”: 0.337.
For `YKVKRRLVFGIDD [A11I]`, “normalised enrichment score” read 0.106.
`YKYKRRLVFGADD [V3Y]` — result for “normalised enrichment score”: 0.319.
Under “normalised enrichment score”, `YKVKRRLVFVADD [G10V]` is recorded as 0.208.
`YKEKRRLVFGADD [V3E]` — result for “normalised enrichment score”: 0.0674.
`YKVKRRLVFGNDD [A11N]`: “normalised enrichment score” 0.287.

Study 2
Target: PABPC1L2, full length, GST fusion (mouse, UniProt A0ABA7IW68)
Technique: RNAcompete
Molecule type: RNA
Matrix: in vitro
Concentration: 20 nM
Notes: 7-mer, probes averaged, single round
Baseline: mean of 7-mers
Direction: higher = stronger binding
Target sequence (chain): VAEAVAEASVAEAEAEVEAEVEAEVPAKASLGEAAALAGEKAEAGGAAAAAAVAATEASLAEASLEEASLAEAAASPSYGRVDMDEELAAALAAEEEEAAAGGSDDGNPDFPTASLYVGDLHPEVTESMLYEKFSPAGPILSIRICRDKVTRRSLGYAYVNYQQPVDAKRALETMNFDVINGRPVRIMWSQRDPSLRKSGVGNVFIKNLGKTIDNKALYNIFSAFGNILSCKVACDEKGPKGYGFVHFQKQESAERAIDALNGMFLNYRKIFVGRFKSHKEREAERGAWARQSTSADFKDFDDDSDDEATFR
`CGUCUCU` has a 7-mer Z-score of -0.443.
With `UUAAGUA` the 7-mer Z-score was -0.108.
For `GCCCGCU`, the 7-mer Z-score was -0.249.
For `UUCUGUG`, the 7-mer Z-score was -0.45.
For `CUUACGU`, the 7-mer Z-score was -0.311.
With `GUGUGUU` the 7-mer Z-score was -0.432.
The 7-mer Z-score of `AGGCAAA` is reported as 1.21.
`GAUACCU` has a 7-mer Z-score of -0.342.

Study 3
Target: CREB5, bZIP domain (human)
Technique: DHFR protein complementation
Matrix: yeast
Notes: single substitutions, most at no-binding floor
Baseline: wild-type JUN-FOS pair
Direction: higher = stronger binding
Parent: JUN, bZIP domain (human); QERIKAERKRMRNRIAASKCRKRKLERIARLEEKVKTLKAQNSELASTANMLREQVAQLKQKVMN; partner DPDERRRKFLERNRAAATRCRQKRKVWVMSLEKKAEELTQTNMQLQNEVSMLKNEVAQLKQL
`Q41S` has a binding fitness of -1.28 natural log.
The binding fitness of `A40D` is reported as -0.233 natural log.
The binding fitness of `A49Y` is reported as -0.927 natural log.
The binding fitness of `E44C` is reported as -0.575 natural log.
For `K34W`, the binding fitness was -0.346 natural log.
With `A57P` the binding fitness was -1.34 natural log.
`L59G` gave a binding fitness of -1.24 natural log.
With `K36H` the binding fitness was -0.389 natural log.

Study 4
Target: Protein C-ets-1 (ETS1, Homo sapiens, UniProt P14921, residues 1-441, Y397A, full length assumed)
Technique: protein-binding microarray
Molecule type: double-stranded DNA, one strand shown
Matrix: in vitro
Concentration: not given
Notes: k-mer, scored over probes, only values ≥0.25
Direction: higher = stronger binding
Construct (chain): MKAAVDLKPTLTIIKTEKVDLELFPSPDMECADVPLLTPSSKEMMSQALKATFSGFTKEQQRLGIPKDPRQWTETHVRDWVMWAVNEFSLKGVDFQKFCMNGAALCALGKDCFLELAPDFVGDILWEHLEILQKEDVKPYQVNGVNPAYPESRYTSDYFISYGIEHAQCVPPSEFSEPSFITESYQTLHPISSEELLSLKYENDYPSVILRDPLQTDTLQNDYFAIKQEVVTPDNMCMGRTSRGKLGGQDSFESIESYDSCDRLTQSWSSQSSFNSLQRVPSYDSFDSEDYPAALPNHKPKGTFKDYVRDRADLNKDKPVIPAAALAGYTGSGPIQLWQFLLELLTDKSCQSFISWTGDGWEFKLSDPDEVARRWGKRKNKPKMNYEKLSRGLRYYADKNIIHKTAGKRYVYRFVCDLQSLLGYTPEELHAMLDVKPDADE
The E-score of `GCGGCAAA` is reported as 0.325.
For `ATTGACAA`, the E-score was 0.301.
`CTGACAAA` gave an E-score of 0.394.
With `ACTTCCTA` the E-score was 0.31.
`GCAAACAC` has an E-score of 0.252.
`GCCCCTCC` has an E-score of 0.427.
For `GACTGCCA`, the E-score was 0.312.
With `CGGAAGCA` the E-score was 0.407.

Repeated from above (study 1):
For `YKVKFRLVFGADD [R5F]`, “normalised enrichment score” read -0.21.
`YKVMRRLVFGADD [K4M]`: “normalised enrichment score” -0.836.
Under “normalised enrichment score”, `YKVKRDLVFGADD [R6D]` is recorded as 0.345.
`YKVKNRLVFGADD [R5N]`: “normalised enrichment score” -0.288.
`YKVKRRLVVGADD [F9V]`: “normalised enrichment score” 0.0233.
